Results collected from several papers.
Each line is one published result; not all experiments were run side by side. Several values in a cell are separate wells, animals, samples, runs or records. ± marks the error that the study gave.

Structure (SMILES) = CCc1ccc(CC/C=C/c2ccc3c(c2)C(=O)CC3)cc1; system = Sprague-Dawley rat, female, serum; conditions = oral, 450 mg/kg/day, 14 days; endpoint = creatinine; value = 22.7 µM
Structure (SMILES) = CCCCCCCCCCC[C@H](OC1OC[C@H](O)[C@@H](O)[C@@H]1O)[C@H](O)[C@H](O)C[C@@H]1CC(=O)N[C@H](CO)C(=O)N[C@H]([C@H](O)c2ccc(O)cc2)C(=O)N[C@H](CCN)C(=O)NCC(=O)N[C@@H](CC(N)=O)C(=O)N[C@@H](CO)C(=O)N[C@@H]([C@H](O)C(N)=O)C(=O)N1 (stereo partly shown); test = LC-MS/MS; system = rabbit plasma, sodium citrate; conditions = 200 ng/mL, 6 freeze-thaw cycles; endpoint = measured concentration; value = 162 ng/mL
Structure (SMILES) = COc1cccc(Oc2ccccc2NC(=O)CNC(=O)c2cccc3ccccc23)c1; system = esterase-deficient SCID mice, male; conditions = oral, 40 mg/kg/day, 14 days, toxicity study; endpoint = albumin/globulin ratio; value = 1.3
Structure (SMILES) = CCN1[C@@H](C(=O)NC23CCC(C(=O)O)(CC2)CC3)[C@H](c2cccc(Cl)c2F)[C@]2(C(=O)Nc3cc(Cl)ccc32)C12CCCCC2; system = patients with advanced solid tumours; conditions = oral, 100 mg; endpoint = grade ≥3 vomiting incidence; value = 0%
Structure (SMILES) = C[C@]1(CO)Cc2ncn(-c3ccc(C#N)c(Cl)c3)c2C(=O)O1; system = healthy humans; conditions = concentration not given, multiple dose part total; endpoint = drug-related Fatigue incidence; value = 2.2%
Structure (SMILES) = C[C@]1(O)C[C@@](N)(c2ccc(-c3nc4n(c3-c3ccccc3)COc3ccncc3-4)cc2)C1; system = human, advanced or metastatic solid tumours; conditions = dose not given, once-daily dose escalation total; endpoint = patients with grade ≥3 TEAE; value = 88.9%
Structure (SMILES) = CC(C)C[C@H](NC(=O)[C@H](C)NC(=O)[C@@H](NC(=O)[C@H](CCCNC(=N)N)NC(=O)[C@H](CC(C)C)NC(=O)[C@H](Cc1c[nH]c2ccccc12)NC(=O)[C@@H]1CCCN1C(=O)[C@@H](N)CCCCN)C(C)C)C(=O)N[C@@H](CS)C(=O)N1CCC[C@H]1C(=O)NCC(=O)O; system = sheep red blood cells; conditions = 16 µM, 1 h, 37 °C; endpoint = hemolysis; value = 0.64% and 0.35% and 0.23%
Structure (SMILES) = CO[C@H]1C[C@@H]2CC[C@@H](C)[C@@](O)(O2)C(=O)C(=O)N2CCCC[C@H]2C(=O)O[C@H]([C@H](C)C[C@@H]2CC[C@@H](OC(=O)NCCOCCOCCOCCOCCOCCOCCOCCOCCC(=O)N3CCc4cc(Cn5nc(-c6ccc7oc(N)nc7c6)c6c(N)ncnc65)ccc4C3)[C@H](OC)C2)C[C@@H](O)[C@H](C)/C=C(\C)[C@@H](O)[C@@H](OC)C(=O)[C@H](C)C[C@H](C)/C=C/C=C/C=C/1C; test = phase 1 dose escalation, refers to: pneumonia; system = advanced solid tumour patients; conditions = intravenous, 10 mg weekly, grade ≥3; endpoint = dose-reducing adverse events; value = 0%
Structure (SMILES) = C[C@@H](NC(=O)N1C(=O)[C@H](Cc2ccnc(N)c2)[C@H]1C(=O)O)C1CCCCC1; system = healthy adult Chinese volunteers; conditions = continuous intravenous infusion, 2.25 mg/kg/h, 5-day infusion, CTCAE 5.0 grading; endpoint = drug-related abnormal liver function; value = 25%
Structure (SMILES) = [O-][S+]1CCc2nc(N3CCC(c4ncc(Cl)cn4)CC3)nc(NC3(CO)CCC3)c21 (stereo not shown); test = refers to: Constipation; system = healthy male humans; conditions = 12 mg twice daily; endpoint = adverse event incidence; value = 0%
Structure (SMILES) = Cn1nc(NS(C)(=O)=O)c2c(Cl)ccc(-n3c([C@H](Cc4cc(F)cc(F)c4)NC(=O)Cn4nc(C(F)F)c5c4C(F)(F)[C@@H]4C[C@H]54)nc4nc(OCCC(F)(F)F)ccc4c3=O)c21; test = refers to: total bile acids increased; system = human; conditions = 25 mg, powder in bottle; endpoint = drug-related adverse events; value = 0%
Structure (SMILES) = CC(C)[C@@H]1NC(=O)CNC(=O)[C@H](CC(N)=O)NC(=O)[C@H](CCCNC(=N)N)NC(=O)[C@H](Cc2ccc(O)cc2)NC(=O)[C@H](C(C)C)NC(=O)[C@@H](NC(=O)[C@@H](NC(=O)[C@H](CC(N)=O)NC(=O)[C@H](Cc2c[nH]c3ccccc23)NC(=O)[C@H](C)NC(=O)[C@H](Cc2ccccc2)NC(=O)CN)C(C)C)CSSC[C@@H](C(=O)N[C@@H](Cc2cnc[nH]2)C(=O)N[C@@H](CCCNC(=N)N)C(=O)N[C@@H](CCCNC(=N)N)C(=O)N[C@@H](C)C(=O)N[C@@H](CC(N)=O)C(N)=O)NC(=O)[C@H](C(C)C)NC(=O)[C@H](CCCNC(=N)N)NC1=O; system = ICR mice, serum; conditions = intraperitoneal, 5 mg/kg, day 5; endpoint = phosphorus; value = 3.22 ± 0.23 mmol/L
Structure (SMILES) = COc1cc2c(Oc3ccc4[nH]c(C)cc4c3F)ccnc2cc1OCC1(N)CC1; system = paediatric recurrent refractory sarcoma; conditions = 12 mg; endpoint = Neutropenia incidence; value = 45.5%
Structure (SMILES) = COc1ncccc1-c1cnn2ccc(N3CCN(C(=O)OC(C)C)CC3)nc12; system = mouse, formalin test, brain; conditions = oral, 10 mg/kg, 60 min; endpoint = drug concentration; value = 16 µM
Structure (SMILES) = Cn1ncc(-c2nc(N[C@H]3CC[C@H](N)CC3)ncc2Cl)c1CC1CC1; test = HPLC-MS/MS; system = human patients; conditions = oral, 1 mg, day 5; endpoint = AUC; value = 43 ng·h/mL
Structure (SMILES) = O=C1Nc2cc3[nH]nc(-c4ccncc4)c3cc2CN1Cc1ccccc1; test = CTCAE v4.03; system = advanced solid tumour patients; conditions = intravenous, 3.6 mg/kg; endpoint = patients with acneiform dermatitis; value = 0%
Structure (SMILES) = C[C@@H]1NC(=O)[C@H](CCCCNC(=O)CO/N=C/C(=O)NCCCC[C@@H]2NC(=O)[C@@H](Cc3ccccc3)NC(=O)[C@H](CC(=O)O)NC(=O)CNC(=O)[C@H](CCCNC(=N)N)NC2=O)NC(=O)CNC(=O)[C@@H]2CCCN2C(=O)[C@H](CCCCNC(=O)CO/N=C/C(=O)NCCCC[C@@H]2NC(=O)[C@@H](Cc3ccccc3)NC(=O)[C@H](CC(=O)O)NC(=O)CNC(=O)[C@H](CCCNC(=N)N)NC2=O)NC(=O)[C@H](CCCCNC(=O)CCNC(=O)CCNC(=O)CCNC(=O)[C@H](CCCCN)NC(=O)[C@H](Cc2ccccc2)NC(=O)CNC(=O)CN2CCCNCCNCCCNCC2)NC(=O)[C@H](CCCCNC(=O)CO/N=C/C(=O)NCCCC[C@@H]2NC(=O)[C@@H](Cc3ccccc3)NC(=O)[C@H](CC(=O)O)NC(=O)CNC(=O)[C@H](CCCNC(=N)N)NC2=O)NC(=O)CNC(=O)[C@@H]2CCCN2C(=O)[C@H](CCCCNC(=O)CO/N=C/C(=O)NCCCC[C@@H]2NC(=O)[C@@H](Cc3ccccc3)NC(=O)[C@H](CC(=O)O)NC(=O)CNC(=O)[C@H](CCCNC(=N)N)NC2=O)NC1=O [copper-64 labelled]; system = normal mice, blood; conditions = intravenous, 0.74 MBq, 3 h post-injection; endpoint = tissue uptake; value = 0.15 ± 0.01 %ID/g
Structure (SMILES) = CN1CC[C@@H](c2c(O)cc(O)c3c(=O)cc(-c4ccc(C(F)(F)F)cc4Cl)oc23)[C@@H]1CO; test = refers to: Anemia; system = relapsed B-cell malignancies; conditions = oral, 150 mg, grade 3-4, intermittent dosing; endpoint = patients with adverse event; value = 0%
Structure (SMILES) = CC(=O)NCC(=O)NCC(=O)N[C@H](C(=O)N[C@@H](Cc1ccc(O)cc1)C(=O)N[C@@H](CO)C(=O)N[C@H]1CSSC[C@@H](C(=O)N[C@@H](CCCNC(=N)N)C(=O)N2CCC[C@H]2C(=O)N[C@@H](CCC(N)=O)C(=O)N[C@@H](CCCNC(=N)N)C(=O)NCC(=O)NCCC(=O)N[C@@H](CCCCNC(=O)CN(CC(=O)NCCCC[C@H](NC(=O)CCNC(=O)CNC(=O)[C@H](CCCNC(=N)N)NC(=O)[C@H](CCC(N)=O)NC(=O)[C@@H]2CCCN2C(=O)[C@H](CCCNC(=N)N)NC(=O)[C@@H]2CSSC[C@H](NC(=O)[C@H](CO)NC(=O)[C@H](Cc3ccc(O)cc3)NC(=O)[C@@H](NC(=O)CNC(=O)CNC(C)=O)[C@@H](C)O)C(=O)N[C@@H](Cc3c[nH]cn3)C(=O)N[C@@H](Cc3ccccc3)C(=O)NCC(=O)N[C@@H](C)C(=O)N[C@@H](CC(C)C)C(=O)N[C@@H]([C@@H](C)O)C(=O)N[C@@H](Cc3c[nH]c4ccccc34)C(=O)N[C@@H](C(C)C)C(=O)N2)C(N)=O)C(=O)CCN)C(N)=O)NC(=O)[C@H](C(C)C)NC(=O)[C@H](Cc2c[nH]c3ccccc23)NC(=O)[C@H]([C@@H](C)O)NC(=O)[C@H](CC(C)C)NC(=O)[C@H](C)NC(=O)CNC(=O)[C@H](Cc2ccccc2)NC(=O)[C@H](Cc2c[nH]cn2)NC1=O)[C@@H](C)O; test = MSD immunoassay; system = BALB/c mice, healthy female, serum; conditions = subcutaneous, 0.08 mg/kg, 2 h, LLOQ 2.0 ng/mL; endpoint = serum concentration; value = not detected
Structure (SMILES) = Clc1ccc(-c2ccccc2)cc1; system = Sprague-Dawley rats, female, serum; conditions = inhalation, 23 µg/rat, 4 h after exposure; endpoint = alkaline phosphatase; value = 183 ± 58 U/L
Structure (SMILES) = Clc1cc2c(cc1Cl)Oc1c(ccc(Cl)c1Cl)O2; system = whole cow milk; conditions = 2000 nM nominal; endpoint = dose fraction in skim milk; value = 5.34%
Structure (SMILES) = CC(C)n1c(C2CCNCC2)nc2c([N+](=O)[O-])c(Br)c(Br)cc21; system = patients with AML; conditions = 125 mg, pseudomonal pneumonia; endpoint = AE leading to discontinuation; value = 2%
Structure (SMILES) = O=C(O)CCCOc1ccc(F)cc1-c1cc(-c2ccccc2C(F)(F)F)n(-c2ccccc2)n1; system = female Crl:CD(SD) rats, liver; conditions = intravenous, 25 µg/kg, 1 d; endpoint = relative organ weight; value = 2.77 ± 0.18 g%
Structure (SMILES) = CN1CCN(S(=O)(=O)c2cc([N+](=O)[O-])ccc2N(CCOS(C)(=O)=O)CCOS(C)(=O)=O)CC1; system = naive NOD/SCID mice, pooled blood; conditions = intraperitoneal, 12.5 mg/kg, week 4; endpoint = total protein; value = 58 g/L
Structure (SMILES) = C[C@@H]1OC(=O)NN=C1c1ccc(-c2ccc(F)cc2)c(C(F)(F)F)c1; test = phase I trial, refers to: Nausea worst grade 1; system = human patients; conditions = 20 mg loading then 1 mg daily; endpoint = patients with adverse event; value = 0%
Structure (SMILES) = CCN1CCN(Cc2ccc(Nc3ncc(F)c(-c4cc(F)c5nc6n(c5c4)[C@H](C)CCC6)n3)nc2)CC1; test = Phase Ia dose escalation; system = patients with advanced solid tumours; conditions = dose not given, monotherapy; scale = reference: patients; endpoint = TEAEs leading to dose interruption; value = 25%
Structure (SMILES) = Cc1ccccc1C(=O)NN=Cc1ccc(O)c(Br)c1; system = C3H/HeN mouse IN model, plasma; conditions = intravenous, 1.6 mg/kg, 30 min; endpoint = plasma concentration; value = 172 ng/mL
Structure (SMILES) = O=c1nc(NO)ccn1[C@@H]1O[C@H](CO)[C@@H](O)[C@H]1O; system = rat fetus dialysate; conditions = 25 ng/mL, low concentration, three cycles, together with: molnupiravir 5 ng/mL; endpoint = freeze-thaw stability; value = 102 ± 5.33%

Excerpt of the above:
Structure (SMILES) = CN1CC[C@@H](c2c(O)cc(O)c3c(=O)cc(-c4ccc(C(F)(F)F)cc4Cl)oc23)[C@@H]1CO; test = refers to: Anemia; system = relapsed B-cell malignancies; conditions = oral, 150 mg, grade 3-4, intermittent dosing; endpoint = patients with adverse event; value = 0%
Structure (SMILES) = CC(=O)NCC(=O)NCC(=O)N[C@H](C(=O)N[C@@H](Cc1ccc(O)cc1)C(=O)N[C@@H](CO)C(=O)N[C@H]1CSSC[C@@H](C(=O)N[C@@H](CCCNC(=N)N)C(=O)N2CCC[C@H]2C(=O)N[C@@H](CCC(N)=O)C(=O)N[C@@H](CCCNC(=N)N)C(=O)NCC(=O)NCCC(=O)N[C@@H](CCCCNC(=O)CN(CC(=O)NCCCC[C@H](NC(=O)CCNC(=O)CNC(=O)[C@H](CCCNC(=N)N)NC(=O)[C@H](CCC(N)=O)NC(=O)[C@@H]2CCCN2C(=O)[C@H](CCCNC(=N)N)NC(=O)[C@@H]2CSSC[C@H](NC(=O)[C@H](CO)NC(=O)[C@H](Cc3ccc(O)cc3)NC(=O)[C@@H](NC(=O)CNC(=O)CNC(C)=O)[C@@H](C)O)C(=O)N[C@@H](Cc3c[nH]cn3)C(=O)N[C@@H](Cc3ccccc3)C(=O)NCC(=O)N[C@@H](C)C(=O)N[C@@H](CC(C)C)C(=O)N[C@@H]([C@@H](C)O)C(=O)N[C@@H](Cc3c[nH]c4ccccc34)C(=O)N[C@@H](C(C)C)C(=O)N2)C(N)=O)C(=O)CCN)C(N)=O)NC(=O)[C@H](C(C)C)NC(=O)[C@H](Cc2c[nH]c3ccccc23)NC(=O)[C@H]([C@@H](C)O)NC(=O)[C@H](CC(C)C)NC(=O)[C@H](C)NC(=O)CNC(=O)[C@H](Cc2ccccc2)NC(=O)[C@H](Cc2c[nH]cn2)NC1=O)[C@@H](C)O; test = MSD immunoassay; system = BALB/c mice, healthy female, serum; conditions = subcutaneous, 0.08 mg/kg, 2 h, LLOQ 2.0 ng/mL; endpoint = serum concentration; value = not detected
